# Published values collected from several papers.
# Protocols differ between the studies behind these lines. ± gives the spread as reported.
Structure (SMILES),tested on,assay,test system,conditions,how to read,endpoint,value
CSCC[C@H](N)C(=O)N[C@@H](C)C(=O)N[C@@H](Cc1c[nH]c2ccccc12)C(=O)N[C@@H](Cc1c[nH]cn1)C(=O)N[C@@H](CC(=O)O)C(=O)N[C@@H](CC(=O)O)C(=O)N[C@@H](CCC(=O)O)C(=O)N[C@@H](CCC(=O)O)C(=O)N[C@@H](Cc1ccccc1)C(=O)N[C@@H](C)C(=O)N[C@@H](CCCNC(=N)N)C(=O)N[C@@H](CCCNC(=N)N)C(=O)N[C@@H](CCCNC(=N)N)C(=O)N[C@@H](CCCNC(=N)N)C(=O)NCCCCCC(=O)NCCCCC(NC(=O)CCCCCNC(=O)[C@H](CCCNC(=N)N)NC(=O)[C@H](CCCNC(=N)N)NC(=O)[C@H](CCCNC(=N)N)NC(=O)[C@H](CCCNC(=N)N)NC(=O)[C@H](C)NC(=O)[C@H](Cc1ccccc1)NC(=O)[C@H](CCC(=O)O)NC(=O)[C@H](CCC(=O)O)NC(=O)[C@H](CC(=O)O)NC(=O)[C@H](CC(=O)O)NC(=O)[C@H](Cc1c[nH]cn1)NC(=O)[C@H](Cc1c[nH]c2ccccc12)NC(=O)[C@H](C)NC(=O)[C@@H](N)CCSC)C(=O)NCCCCC(NC(=O)C(CCCCNC(=O)CCCCCNC(=O)[C@H](CCCNC(=N)N)NC(=O)[C@H](CCCNC(=N)N)NC(=O)[C@H](CCCNC(=N)N)NC(=O)[C@H](CCCNC(=N)N)NC(=O)[C@H](C)NC(=O)[C@H](Cc1ccccc1)NC(=O)[C@H](CCC(=O)O)NC(=O)[C@H](CCC(=O)O)NC(=O)[C@H](CC(=O)O)NC(=O)[C@H](CC(=O)O)NC(=O)[C@H](Cc1c[nH]cn1)NC(=O)[C@H](Cc1c[nH]c2ccccc12)NC(=O)[C@H](C)NC(=O)[C@@H](N)CCSC)NC(=O)CCCCCNC(=O)[C@H](CCCNC(=N)N)NC(=O)[C@H](CCCNC(=N)N)NC(=O)[C@H](CCCNC(=N)N)NC(=O)[C@H](CCCNC(=N)N)NC(=O)[C@H](C)NC(=O)[C@H](Cc1ccccc1)NC(=O)[C@H](CCC(=O)O)NC(=O)[C@H](CCC(=O)O)NC(=O)[C@H](CC(=O)O)NC(=O)[C@H](CC(=O)O)NC(=O)[C@H](Cc1c[nH]cn1)NC(=O)[C@H](Cc1c[nH]c2ccccc12)NC(=O)[C@H](C)NC(=O)[C@@H](N)CCSC)C(N)=O (stereo partly drawn),,,"C57BL/6 mouse female, stomach","dose not given, 3 h",baseline: total,mean tissue distribution,35.4%
CC(CCC(=O)NCC(=O)O)C1CCC2C3CCC4CC(OC5OC(C(=O)O)C(O)C(O)C5O)CCC4(C)C3CC(O)C12C (stereo not drawn),,,"men, T/T genotype, plasma","dose not given, geometric mean",,plasma concentration,81.3 ng/mL
CCCCC[C@H]1C(=O)N[C@H](C)C(=O)N(C)[C@@H](CCCCC)C(=O)N[C@H](C)C(=O)N(C)[C@@H](CCCCC)C(=O)N[C@H](C)C(=O)N(C)[C@@H](CCCCC)C(=O)N(C)[C@H](C)C(=O)N1C,,PAMPA,,"500 µM, pH 7.4, UV/ELSD/MS detection",,log Papp,-5.8
CC(C)[C@H](NC(=O)[C@@H](NC(=O)[C@H](CCCNC(=N)N)NC(=O)[C@H](CCCNC(=N)N)NC(=O)[C@H](CCCNC(=N)N)NC(=O)[C@H](CCC(N)=O)NC(=O)[C@H](CCCNC(=N)N)NC(=O)[C@H](CCCNC(=N)N)NC(=O)[C@H](CCCCN)NC(=O)[C@H](CCCCN)NC(=O)[C@H](CCCNC(=N)N)NC(=O)CN)[C@@H](C)O)C(=O)N[C@H](C(=O)N[C@@H](CO)C(=O)N1CCC[C@H]1C(=O)O)[C@@H](C)O,,,"ICR mice, male, heart","intranasal, 10 mg/kg daily, 4 weeks",,organ weight,0.191 ± 0.03 g
NC1CCN(C(=O)Oc2ccc(C3CCCC4(C3)OOC3(O4)C4CC5CC(C4)CC3C5)cc2)CC1 (racemic),,,"male mouse, plasma","intravenous, 10 mg/kg",,MRT(0-inf),2.53 h
CC(C)[C@@H]1NC(=O)CNC(=O)[C@H](CC(N)=O)NC(=O)[C@H](CCCNC(=N)N)NC(=O)[C@H](Cc2ccc(O)cc2)NC(=O)[C@H](C(C)C)NC(=O)[C@@H](NC(=O)[C@@H](NC(=O)[C@H](CC(N)=O)NC(=O)[C@H](Cc2c[nH]c3ccccc23)NC(=O)[C@H](C)NC(=O)[C@H](Cc2ccccc2)NC(=O)CNC(=O)[C@H](CCCCN)NC(=O)[C@H](Cc2ccccc2)NC(=O)[C@H](Cc2ccccc2)NC(=O)[C@H](CCCCN)NC(=O)OCC2c3ccccc3-c3ccccc32)C(C)C)CSSC[C@@H](C(=O)N[C@@H](Cc2c[nH]cn2)C(=O)N[C@@H](CCCNC(=N)N)C(=O)N[C@@H](CCCNC(=N)N)C(=O)N[C@@H](C)C(=O)N[C@@H](CC(N)=O)C(N)=O)NC(=O)[C@H](C(C)C)NC(=O)[C@H](CCCNC(=N)N)NC1=O,,,"ICR mouse, blood","intramammary, 10 mg/kg, day 5, 3 d dosing",,MCV,40.9 ± 0.54 fL
N#Cc1cc(NC(=O)CCc2nc(-c3ccc(F)cc3Cl)no2)cnc1CC(F)(F)F,,,water,,,aqueous solubility,< 1 µg/mL
CC[C@H](C)[C@H](NC(=O)[C@H](CCCCN)NC(=O)CNC(=O)[C@H](CC(C)C)NC(=O)[C@H](Cc1ccccc1)NC(=O)[C@H](CCCCN)NC(=O)[C@H](CO)NC(=O)[C@H](Cc1ccccc1)NC(=O)[C@H](Cc1c[nH]c2ccccc12)NC(=O)[C@H](CCC(N)=O)NC(=O)[C@@H](NC(=O)[C@H](Cc1ccccc1)NC(=O)CCCCCNC(=O)CN1CCN(CC(=O)O)CCN(CC(=O)O)CCN(CC(=O)O)CC1)C(C)C)C(=O)N[C@@H](CCC(=O)O)C(=O)N1CCC[C@H]1C(=O)N[C@@H](CC(=O)O)C(=O)N[C@H](C(=O)N[C@@H](CO)C(=O)N[C@@H](CCC(N)=O)C(=O)N[C@H](C(=O)N[C@@H](CCC(N)=O)C(=O)N[C@@H](CC(=O)O)C(=O)N1CCC[C@H]1C(=O)N[C@@H](CC(N)=O)C(=O)N[C@@H](CC(=O)O)C(=O)N[C@@H](CCC(N)=O)C(=O)N[C@@H](Cc1ccc(O)cc1)C(=O)N[C@@H](CCC(=O)O)C(=O)N1CCC[C@H]1C(=O)N[C@@H](Cc1ccccc1)C(=O)O)C(C)C)C(C)C [copper-64 labelled],,,"BALB/c mice, male, CT26 tumour-bearing, heart","2 h, vehicle-treated",,tissue uptake,1.53 ± 0.8 %ID/g
C[C@H](O)[C@@H](NC(=O)[C@H]1CCCN1C(=O)[C@@H](CCCCN)NC(=O)[C@@H](CO)NC(=O)[C@@H](Cc1ccc(O)cc1)NC(=O)[C@@H](CC(N)=O)NC(=O)CCOCCOCCOCCNC(=O)CN1CCN(CC(=O)O)CCN(CC(=O)O)CCN(CC(=O)O)CC1)C(=O)N[C@H](CC(=O)O)C(=O)N[C@H](CCCNC(=N)N)C(=O)N[C@H](CCC(N)=O)C(=O)N[C@H](Cc1ccc(O)cc1)C(=O)N[C@H](Cc1c[nH]cn1)C(=O)N[C@H](Cc1ccccc1)C(N)=O [copper-64 labelled],,,"C57BL/6J mice, liver","intravenous, 1.85 MBq, 0.3333 h, radiolabelled",,tissue uptake,1.4 ± 0.19 %ID/g
CC(C)C[C@H](NC(=O)[C@H](C)NC(=O)[C@H](CCCCN)NC(=O)CCNC(=S)Nc1ccc2c(c1)C(=O)OC21c2ccc(O)cc2Oc2cc(O)ccc21)C(=O)N[C@@H](CCC(=O)O)C(=O)N[C@H](C(=O)N[C@@H](CC(C)C)C(=O)N[C@@H](CCCNC(=N)N)C(=O)N[C@@H](CCCNC(=N)N)C(=O)N[C@H](C(=O)NCC(=O)N[C@@H](CC(=O)O)C(=O)NCC(=O)N[C@H](C(=O)N[C@@]1(C)CCC/C=C\CCC[C@@](C)(C(=O)N[C@H](C(=O)N[C@@H](C)C(=O)N[C@@H](Cc2ccccc2)C(N)=O)[C@@H](C)O)NC(=O)[C@H](Cc2c[nH]cn2)NC(=O)[C@H](CC(N)=O)NC(=O)[C@H](CCCNC(=N)N)NC1=O)C(C)C)C(C)C)[C@@H](C)O,,circular dichroism,potassium phosphate buffer,"20 µM, pH 7.5",,α-helicity,91%
CC[C@H](C)[C@H](NC(=O)[C@H](C)NC(=O)[C@H](CCCCN)NC(=O)[C@H](CCCCN)NC(=O)[C@@H](N)CCCNC(=N)N)C(=O)N[C@@H](CCCCN)C(=O)N[C@@H](CC(C)C)C(=O)N[C@H](C(=O)N[C@@H](CCCCN)C(=O)N[C@@H](CCCCN)C(=O)N[C@@H](CC(C)C)C(=O)N[C@H](C(=O)N[C@@H](CCCCN)C(=O)N[C@@H](CCCCN)C(=O)N[C@@H](CC(C)C)C(=O)N[C@@H](CCCCN)C(=O)N[C@@H](CCCCN)C(=O)N[C@@H](C)C(=O)N[C@@H](CC(C)C)C(=O)N[C@@H](CCCCN)C(=O)O)C(C)C)C(C)C,,,human red blood cells,"0.5 mg/L, 1 h, mean of replicates",,hemolysis,0.601%
N=C(N)NCCC[C@@H](NC(=O)[C@H](N)Cc1c[nH]c2ccccc12)C(=O)N[C@H](CCCCN)C(=O)N[C@H](Cc1c[nH]c2ccccc12)C(=O)N[C@H](CCCNC(=N)N)C(=O)N[C@H](CCCCN)C(=O)N[C@H](Cc1c[nH]c2ccccc12)C(=O)N[C@H](CCCNC(=N)N)C(=O)N[C@H](CCCCN)C(=O)N[C@H](Cc1c[nH]c2ccccc12)C(=O)N[C@H](CCCNC(=N)N)C(=O)N[C@H](CCCCN)C(N)=O,,,mouse,"intraperitoneal, 40 mg/kg single dose, day 1",,survival,75%
CC[C@H](C)[C@H](NC(=O)[C@H](Cc1ccc(O)cc1)NC(=O)[C@@H](NC(=O)[C@H](CCCNC(=N)N)NC(=O)[C@@H](N)CC(=O)O)C(C)C)C(=O)N[C@@H](Cc1c[nH]cn1)C(=O)N1CCC[C@H]1C(=O)O,,,Beagle dog,"sc, 10 mg/kg once daily, 28 days",,tolerability,not toxic
CN1Cc2cc(Cl)ccc2-n2c(nnc2C2CCN(c3cccc([18F])n3)CC2)C1,,,"C57BL/6 mouse male, kidney","intravenous, dose not given, 5 min, added: blocking agent 10 mg/kg",,tissue uptake,9.63 ± 2.24 %ID/g
CC(C)(C)C(=O)OCOP(=O)(OCOC(=O)C(C)(C)C)C1CCCN(O)C1=O (stereo not drawn),SF-539,,,,,log TGI,-4.93 log M
C#Cc1c(F)ccc2cc(O)cc(-c3ncc4c(N5CC6CCC(C5)N6C(=O)OC(OC(=O)CCC)C(C)C)nc(OC[C@@]56CCCN5C[C@H](F)C6)nc4c3F)c12 (stereo partly drawn),,refers to: prodrug,mouse whole blood,1 µM,,t1/2,4.41 min
O=C1NC2(CC2)COc2ncc(F)cc2[C@H]2COCCN2c2ccn3ncc1c3n2,,,"Sprague-Dawley rats, male, blood","oral, 5 mg/kg/day, end of recovery, 4-week subacute toxicity",,fibrinogen,1.73 ± 0.15 g/L
C=CC(=O)Nc1cccc(Cn2ncc3cnc(Nc4cnn(CCOC)c4)nc32)c1,,,"Sprague-Dawley rat male, serum","oral, 180 mg/kg, day 28, 28-day subacute toxicity",,serum total protein,50.9 ± 11.8 g/L

# A few entries again:
Structure (SMILES),tested on,assay,test system,conditions,how to read,endpoint,value
CC(C)[C@@H]1NC(=O)CNC(=O)[C@H](CC(N)=O)NC(=O)[C@H](CCCNC(=N)N)NC(=O)[C@H](Cc2ccc(O)cc2)NC(=O)[C@H](C(C)C)NC(=O)[C@@H](NC(=O)[C@@H](NC(=O)[C@H](CC(N)=O)NC(=O)[C@H](Cc2c[nH]c3ccccc23)NC(=O)[C@H](C)NC(=O)[C@H](Cc2ccccc2)NC(=O)CNC(=O)[C@H](CCCCN)NC(=O)[C@H](Cc2ccccc2)NC(=O)[C@H](Cc2ccccc2)NC(=O)[C@H](CCCCN)NC(=O)OCC2c3ccccc3-c3ccccc32)C(C)C)CSSC[C@@H](C(=O)N[C@@H](Cc2c[nH]cn2)C(=O)N[C@@H](CCCNC(=N)N)C(=O)N[C@@H](CCCNC(=N)N)C(=O)N[C@@H](C)C(=O)N[C@@H](CC(N)=O)C(N)=O)NC(=O)[C@H](C(C)C)NC(=O)[C@H](CCCNC(=N)N)NC1=O,,,"ICR mouse, blood","intramammary, 10 mg/kg, day 5, 3 d dosing",,MCV,40.9 ± 0.54 fL
N#Cc1cc(NC(=O)CCc2nc(-c3ccc(F)cc3Cl)no2)cnc1CC(F)(F)F,,,water,,,aqueous solubility,< 1 µg/mL
CC[C@H](C)[C@H](NC(=O)[C@H](CCCCN)NC(=O)CNC(=O)[C@H](CC(C)C)NC(=O)[C@H](Cc1ccccc1)NC(=O)[C@H](CCCCN)NC(=O)[C@H](CO)NC(=O)[C@H](Cc1ccccc1)NC(=O)[C@H](Cc1c[nH]c2ccccc12)NC(=O)[C@H](CCC(N)=O)NC(=O)[C@@H](NC(=O)[C@H](Cc1ccccc1)NC(=O)CCCCCNC(=O)CN1CCN(CC(=O)O)CCN(CC(=O)O)CCN(CC(=O)O)CC1)C(C)C)C(=O)N[C@@H](CCC(=O)O)C(=O)N1CCC[C@H]1C(=O)N[C@@H](CC(=O)O)C(=O)N[C@H](C(=O)N[C@@H](CO)C(=O)N[C@@H](CCC(N)=O)C(=O)N[C@H](C(=O)N[C@@H](CCC(N)=O)C(=O)N[C@@H](CC(=O)O)C(=O)N1CCC[C@H]1C(=O)N[C@@H](CC(N)=O)C(=O)N[C@@H](CC(=O)O)C(=O)N[C@@H](CCC(N)=O)C(=O)N[C@@H](Cc1ccc(O)cc1)C(=O)N[C@@H](CCC(=O)O)C(=O)N1CCC[C@H]1C(=O)N[C@@H](Cc1ccccc1)C(=O)O)C(C)C)C(C)C [copper-64 labelled],,,"BALB/c mice, male, CT26 tumour-bearing, heart","2 h, vehicle-treated",,tissue uptake,1.53 ± 0.8 %ID/g
